Measurements from different studies.
Parts stem from different laboratories: compare values within a part only.

Study 1 — technique: aptamer microarray, sandwich; form: DNA with 2'F-ANA; sample: in vitro; tested at: 200 nM; together with: Cy3 exosite-II aptamer, 400 nM; reading: higher = stronger binding; measurement: mean fluorescence intensity; strand: GGTTGGTGTGGTTGG
Target: Prothrombin, mature alpha-thrombin (F2, Homo sapiens, UniProt P00734)
Notes: whole 15-mer aptamer, many near background
Modification = 2'F-ANA at 1 3 4 5 6 8 9 11 15; result = 61.7 a.u.
Modification = 2'F-ANA at 3 4 5 9 10 12 13 14; result = 50.1 a.u.
Modification = 2'F-ANA at 6 8 9 11 15; result = 417 a.u.
Modification = 2'F-ANA at 1 2 3 6 8 10 12 13 14 15; result = 60.6 a.u.
Modification = 2'F-ANA at 1 5 6 7 8 9 10 12 15; result = 50 a.u.
Modification = 2'F-ANA at 1 2 6 10 13 14; result = 47 a.u.
Modification = 2'F-ANA at 2 4 5 6 9 10 11 13 14; result = 47.9 a.u.
Modification = 2'F-ANA at 1 2 3 5 6 7 8 13 15; result = 54.7 a.u.
Modification = 2'F-ANA at 1 3 5 7 8 10 11 12 13 15; result = 52.5 a.u.
Modification = 2'F-ANA at 2 3 6 7 14; result = 424 a.u.
Modification = 2'F-ANA at 5 6 8 10 11 13; result = 46.9 a.u.
Modification = 2'F-ANA at 2 3 4 7 9 10 11 13 14; result = 168 a.u.
Modification = 2'F-ANA at 1 5 6 10 11; result = 124 a.u.
Modification = 2'F-ANA at 1 3 5 9 12 13 15; result = 83.1 a.u.
Modification = 2'F-ANA at 1 2 5 7 8 9 10 11 15; result = 73.5 a.u.
Modification = 2'F-ANA at 1 3 4 6 9 11 13 14 15; result = 67.3 a.u.
Modification = 2'F-ANA at 1 2 4 5 6 10 11 12 13 14 15; result = 47.5 a.u.
Modification = 2'F-ANA at 2 3 6 8 9 10 12 13 14 15; result = 262 a.u.
Modification = 2'F-ANA at 1 2 5 8 10 14 15; result = 44.9 a.u.
Modification = 2'F-ANA at 1 2 5 8 9 10 11 13 14 15; result = 43.8 a.u.
Modification = 2'F-ANA at 1 2 6 10 11 12; result = 62.2 a.u.
Modification = 2'F-ANA at 1 2 4 5 6 9 11 12 13; result = 85.1 a.u.
Modification = 2'F-ANA at 2 3 4 5 7 8 9 12; result = 181 a.u.
Modification = 2'F-ANA at 1 5 6 7 9 10 12; result = 82 a.u.
Modification = 2'F-ANA at 2 3 4 5 6 12 13 14 15; result = 51.8 a.u.

Study 2 — technique: protein binding microarray; form: double-stranded DNA, one strand shown; sample: in vitro; tested at: not given; reference: not given; reading: higher = stronger binding; measurement: E-score
Target: Histone acetyltransferase KAT6A, winged helix 1, GST fusion (KAT6A, Homo sapiens, UniProt Q92794, residues 1-85)
Notes: 8-mer, flanks averaged, mean of 2 arrays, mostly near background
Target sequence (chain): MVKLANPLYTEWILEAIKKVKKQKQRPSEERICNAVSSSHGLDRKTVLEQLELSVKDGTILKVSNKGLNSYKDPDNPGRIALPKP
Strand = TCGGTAGA; result = 0.0481
Strand = CGTGTCAC; result = 0.0616
Strand = CGGCTGTC; result = 0.217
Strand = ACTTGCCC; result = -0.126
Strand = CCGTGCCC; result = 0.301
Strand = ACCATATA; result = -0.125
Strand = ACTCTTTG; result = -0.192
Strand = CACTGGCA; result = -0.234
Strand = ACTTAGGG; result = -0.196
Strand = AAGTGTGG; result = -0.261
Strand = GAGCACAC; result = -0.205
Strand = ATAAGTAC; result = -0.0866
Strand = GACGGCTA; result = 0.376
Strand = ATACGACG; result = 0.136
Strand = CATCACCG; result = 0.106
Strand = AGGGGTGA; result = -0.145
Strand = AGCCATCG; result = -0.126
Strand = GGTCTCAA; result = 0.0431
Strand = AACTTCAG; result = -0.148
Strand = GTTTAAAA; result = -0.132
Strand = CGTGCGAC; result = 0.296
Strand = ACCACTGA; result = -0.196
Strand = TATAAGCA; result = -0.141
Strand = CGTACCAC; result = 0.0907
Strand = ATCATTAA; result = -0.0638

Study 3 — technique: protein-binding microarray; form: double-stranded DNA, one strand shown; sample: in vitro; tested at: 2540 nM top; notes: 60-bp whole probe; together with: salmon DNA 0.4 mg/ml; reference: random background probes; reading: higher = stronger binding; measurement: fitted relative affinity; shared flanks, not repeated: GCCTAGCAC … GTCTTGATTCGCTTGACGCTGCTG
Target: Interferon regulatory factor 3, full length, phosphomimetic (IRF3, Homo sapiens, UniProt Q14653, residues 1-427, S386D/S396D/S398D/S402D/T404D/S405D)
Residues (chain): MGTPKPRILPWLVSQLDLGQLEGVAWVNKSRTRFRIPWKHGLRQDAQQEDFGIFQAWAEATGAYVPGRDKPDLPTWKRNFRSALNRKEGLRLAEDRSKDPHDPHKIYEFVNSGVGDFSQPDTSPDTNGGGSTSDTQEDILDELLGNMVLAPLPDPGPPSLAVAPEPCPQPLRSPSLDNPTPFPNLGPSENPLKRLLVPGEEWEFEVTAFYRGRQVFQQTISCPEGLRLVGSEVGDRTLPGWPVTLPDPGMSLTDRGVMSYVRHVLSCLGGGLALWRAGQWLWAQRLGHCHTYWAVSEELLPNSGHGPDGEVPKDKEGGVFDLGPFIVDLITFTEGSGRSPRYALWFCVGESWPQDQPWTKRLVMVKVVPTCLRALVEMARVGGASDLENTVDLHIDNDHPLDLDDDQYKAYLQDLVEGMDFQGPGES
Strand = TTAGATTTCAGTTTCGGTTAGTGCTAG; result = 6.55 z-score
Strand = TCACCTCTAGACTCTAAAACTGTGCTA; result = 0.179 z-score
Strand = TTAGGTTTAGGTCTCGGTTAGTGCTAG; result = 0.347 z-score
Strand = TCAATTTTCCCTCCCTAACTGTGCTAG; result = 2.47 z-score
Strand = GACGGTCCCGGACTGGGGACGTGCTAG; result = -0.441 z-score
Strand = GACGATCTCCTTCTCCTGACGTGCTAG; result = 2.53 z-score
Strand = TCAGGGCTCTCTTCTGCTACTGTGCTA; result = -0.541 z-score
Strand = TGAGGTTTCGGTATCGGTTAGTGCTAG; result = 8.67 z-score
Strand = GACGAAGTGAGACTGGAGACGTGCTAG; result = -0.506 z-score
Strand = TCAACTTTCTGAATGCTACTGTGCTAG; result = 2.31 z-score
Strand = TCATGTTTGGTGTCTTTTACTGTGCTA; result = 0.133 z-score
Strand = GACGGTCTCCGTATCCTGACGTGCTAG; result = 1.84 z-score
Strand = TACGGTTTCCTTTTCCTGACGTGCTAG; result = 10.5 z-score
Strand = CGGGGGTGGGGAGAGCCCCTGTGCTAG; result = -0.433 z-score
Strand = TCAAATTTACTTTGGTTACTGTGCTAG; result = 0.0206 z-score
Strand = GTCGAACTGGGGTTTCGAGACGTGCTA; result = 0.653 z-score
Strand = ATTTTTTTCTAATTGAAATCGTGCTAG; result = 1.51 z-score
Strand = TTTTTTTTTTTTTTTACTTCGTGCTAG; result = 1.69 z-score
Strand = TCATGACTCCCTCTCTGACTGTGCTAG; result = 0.287 z-score
Strand = TCATTTTCATTTTTTTTACTGTGCTAG; result = 3.52 z-score
Strand = GACGATATCAGTTTCAAGACGTGCTAG; result = 2.18 z-score
Strand = GACGGACCGCTTTTCCTGACGTGCTAG; result = 0.25 z-score
Strand = GACAATATCGGGTTTCGAGACGTGCTA; result = 1.26 z-score
Strand = TTAGATCTCAGCATCGATTAGTGCTAG; result = -0.219 z-score

Study 4 — technique: universal PBM; form: double-stranded DNA, one strand shown; sample: in vitro; tested at: 600 nM; reading: higher = stronger binding; measurement: E-score
Target: Sal-like protein 4, full length isoform A (SALL4, Homo sapiens, UniProt Q9UJQ4, residues 1-1053)
Chain of UniProt Q9UJQ4 (whole entry, looked up): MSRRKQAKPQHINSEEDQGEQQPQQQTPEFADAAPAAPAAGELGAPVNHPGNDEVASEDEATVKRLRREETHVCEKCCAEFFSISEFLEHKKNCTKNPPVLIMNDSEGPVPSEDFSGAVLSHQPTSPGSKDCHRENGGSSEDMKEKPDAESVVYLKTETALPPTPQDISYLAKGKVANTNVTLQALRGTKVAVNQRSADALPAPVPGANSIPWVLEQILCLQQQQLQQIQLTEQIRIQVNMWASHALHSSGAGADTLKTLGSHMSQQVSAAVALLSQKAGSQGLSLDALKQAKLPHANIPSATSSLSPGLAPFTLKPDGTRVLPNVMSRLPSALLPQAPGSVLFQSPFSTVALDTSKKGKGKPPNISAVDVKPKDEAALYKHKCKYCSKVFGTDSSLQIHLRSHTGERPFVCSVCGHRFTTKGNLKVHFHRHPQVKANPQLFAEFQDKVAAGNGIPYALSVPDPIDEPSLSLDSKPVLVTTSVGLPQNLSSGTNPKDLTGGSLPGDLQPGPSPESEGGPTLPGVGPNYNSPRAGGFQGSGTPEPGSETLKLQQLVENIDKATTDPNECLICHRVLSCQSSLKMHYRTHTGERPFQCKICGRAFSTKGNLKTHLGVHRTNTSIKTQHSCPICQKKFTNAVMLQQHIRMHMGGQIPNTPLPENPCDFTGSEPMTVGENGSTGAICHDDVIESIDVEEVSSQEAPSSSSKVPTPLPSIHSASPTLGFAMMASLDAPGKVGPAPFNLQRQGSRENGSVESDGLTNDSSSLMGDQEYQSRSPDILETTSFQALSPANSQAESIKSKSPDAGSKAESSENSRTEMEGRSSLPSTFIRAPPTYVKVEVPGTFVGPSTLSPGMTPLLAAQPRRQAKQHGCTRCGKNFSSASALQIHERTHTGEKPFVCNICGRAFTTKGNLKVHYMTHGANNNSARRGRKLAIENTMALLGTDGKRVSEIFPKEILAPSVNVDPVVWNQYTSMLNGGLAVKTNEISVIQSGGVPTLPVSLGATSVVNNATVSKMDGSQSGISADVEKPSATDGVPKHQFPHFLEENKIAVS
Notes: 8-mer, flanks averaged, mean of replicates
Strand = ATATCCGA; result = 0.227
Strand = GAGACTCC; result = -0.121
Strand = CCCATATC; result = 0.118
Strand = CTCTCTGA; result = -0.149
Strand = AGTTTCTG; result = -0.0182
Strand = GACCGAAA; result = -0.0417
Strand = TCGGACAA; result = 0.0656
Strand = GATTGCAC; result = 0.106
Strand = AGGCTTCC; result = -0.134
Strand = CAATAAGC; result = 0.184
Strand = CTTCTTGA; result = 0.128
Strand = AATGGTGT; result = 0.18
Strand = ACACCTCC; result = -0.183
Strand = ATGCGAGC; result = -0.139
Strand = CTGCCCGC; result = -0.283
Strand = ACGTAGAC; result = -0.145
Strand = ACGGCTCA; result = -0.079
Strand = CTCCGCAA; result = -0.137
Strand = CACCAGGG; result = -0.34
Strand = ATACGGTA; result = 0.17
Strand = GATAGCTA; result = 0.0696
Strand = CCAGTAGG; result = -0.226
Strand = GAATGGCC; result = -0.197
Strand = AACCGACT; result = -0.19

Study 5 — technique: RNA Bind-n-Seq; form: RNA; sample: in vitro; tested at: not given; notes: RNA with constant flanks, ends assumed; reference: input RNA pool; reading: higher = stronger binding; measurement: bound/input enrichment
Target: RING finger protein unkempt homolog, zinc fingers 1-6, GST-SBP tag (UNK, Homo sapiens, UniProt Q9C0B0, residues 30-357)
Shared flanks, not repeated: GGGAGUUCUACAGUCCGACGAUC … CAACAGAGGAUUGAGCAUCA
Target sequence (chain): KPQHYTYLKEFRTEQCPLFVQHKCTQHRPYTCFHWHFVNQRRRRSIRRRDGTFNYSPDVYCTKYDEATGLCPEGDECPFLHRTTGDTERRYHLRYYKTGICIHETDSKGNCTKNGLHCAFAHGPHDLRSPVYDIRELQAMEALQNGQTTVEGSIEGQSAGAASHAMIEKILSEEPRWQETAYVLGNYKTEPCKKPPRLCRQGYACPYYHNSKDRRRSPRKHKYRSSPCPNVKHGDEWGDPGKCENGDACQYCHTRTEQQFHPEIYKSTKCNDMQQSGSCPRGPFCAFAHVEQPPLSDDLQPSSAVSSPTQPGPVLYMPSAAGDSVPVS
Strand = UCUGACAUUUCUACGCUUGGACACCUGGUAGUAACCACUCAGGGAGGAUACGUGAAAGUAUCCGACCUUUCAAACUUCGAAAUUUUGGCCAAAGUGGAGCCUCCCAAAAAGGAGGGCACU; result = 0.204 ratio
Strand = GAGGACACUGGACUAAAUGAUUGCCCAGUUUCCAGCUAGUCCUAGAGUUCUAUAUUUCUACACCGUUGAAUUAUUUUAUCAUGCGGUUGCUGGGGAAUACAACUAACACUUUUGAAGCUA; result = 1.26 ratio
Strand = AAAGAUAAAUUUGCAAGGGCCAAAGAGUUUGGAGCCACUGAAUGUAUUAACCCUCAGGAUUUCCGUAAACCCAUCCAGGAAGUGCUCAUUGAGAUGACCGAUGGAGGAGUGGACUAUUCC; result = 0.235 ratio
Strand = AGCAGCCAUCUUAUCAACCUUCUGAACCCCAAAGGAAAGCCAGCAAACCAGCUGCUUGCUCUCCGGACUUUUUGCAAUUGCUUUGUUAGUCAGGCAGGACAAAAGCUCAUGAUGUCCCAG; result = 0.237 ratio
Strand = UCACUUGAAAAUAAUGAAACAUUAGAAAGCAUAAUGAAUACCCUAGAGAGUGAAGAAGACUUCCGAAAAUAUUUUUAUUACUUGGAAGGAUCCAAAGAUGCUCUCCUUUGUGGUUUCAGC; result = 2.17 ratio
Strand = UUGCUCUCUGAAGUAGACUAGACUGUGCUGUCCAUGAGGAAUGGGUGUGCAUGUGCUUGUCCCCGUGCGUCCCGCUUCUGCAUCGCAGCUGCAGGCCUCCCUCUGGCGGCUGUGUCGCCA; result = 0.0773 ratio
Strand = GACUUGGUACACUUUGAUUUUAUGGACCCACCAGCUCCUGAAACUCUGAUGAGAGCCCCCGAACUUUUGAAUUAUUUGGCUGCUUUAAAUGAUGAUGGAGAUCUGACUGAAUUGGGAUCC; result = 0.516 ratio
Strand = CCUCUACCAGAUGACUAUAAUUGCAACGUAGAGCUUGCUCUGACUUCUGAUGGCAGGACAACCGUAUGCUACCACCCUUCUGUGGACAUUCCAUAUGAACACACAAAACCUAUCCCUCGG; result = 0.167 ratio
Strand = GUACAGUAGACGAGGCUUCCUUGGAAUGGUUUGCCCCGCUGCAUUGGUUUGGGUUUAAGCCCGUUAUACUUCUGUCACUAUUCUAAGUUAAAUGCAAAACUUUCAAGUAGUUUUAAUGAA; result = 0.38 ratio
Strand = AUGCUUUCAGUAGCAGGAAUGGCAUUGUUUAAAAAGCUGAUGGCAGGGUAAGCAUUUGGGUCCGUGUUUUAUUAACAUAUUUGUAAGUACUUGUUCAUUGUGGAAAUGUGUCCUUGACUA; result = 0.27 ratio
Strand = GUCAAAUUCAAACUACAGUACUGUGUAAUUAUGUAUAAAGUUUUUUUAUUUAUUUGAAGUCCGACCCGAUAUACGUUUUUAAAUUUAACAUCUGGCUGGACAGUGUUCUAUUAACUCAUU; result = 3.51 ratio

Some of these lines once more (study 1):
Modification = 2'F-ANA at 1 3 5 7 8 10 11 12 13 15; result = 52.5 a.u.
Modification = 2'F-ANA at 1 2 4 5 6 10 11 12 13 14 15; result = 47.5 a.u.
Modification = 2'F-ANA at 1 2 6 10 11 12; result = 62.2 a.u.
Modification = 2'F-ANA at 2 3 6 8 9 10 12 13 14 15; result = 262 a.u.
Modification = 2'F-ANA at 2 3 6 7 14; result = 424 a.u.
Modification = 2'F-ANA at 1 2 5 8 9 10 11 13 14 15; result = 43.8 a.u.
Modification = 2'F-ANA at 2 3 4 5 6 12 13 14 15; result = 51.8 a.u.
